# Experimental data pooled from the literature.
# A part holds a random share of what one study measured. Substitutions count along the parent as printed.

# Set 1
# Target: PABPC1L2, full length, GST fusion (mouse, UniProt A0ABA7IW68)
# Method: RNAcompete
# Molecule type: RNA
# Medium: in vitro
# Concentration: 20 nM
# Notes: 7-mer, probes averaged, single round
# Baseline: mean of 7-mers
# Reading: higher = stronger binding
# Residues (chain): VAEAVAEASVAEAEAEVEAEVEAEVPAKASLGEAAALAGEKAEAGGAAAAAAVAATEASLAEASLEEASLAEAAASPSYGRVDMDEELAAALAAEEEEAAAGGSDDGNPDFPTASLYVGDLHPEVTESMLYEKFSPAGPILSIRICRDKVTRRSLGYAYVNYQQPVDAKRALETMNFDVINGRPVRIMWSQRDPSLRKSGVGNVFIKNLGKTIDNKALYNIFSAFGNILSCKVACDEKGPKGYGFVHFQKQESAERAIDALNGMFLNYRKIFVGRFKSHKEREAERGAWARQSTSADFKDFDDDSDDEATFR
Sequence,7-mer Z-score
CUACGAA,-0.113
AUGCACG,0.0968
UCCAUUC,-0.278
CUGUCGC,-0.407
AUUGGCG,0.0189
CUUACCC,-0.481
GGGUAUU,-0.0409
CUAACAC,-0.19
CAGGGUU,-0.162
AGCGGUC,-0.249
UGUCCUC,-0.362
AAGUACA,0.492
UCCCCAG,-0.316
GACGCAU,-0.0953
CUACGCC,-0.364

# Set 2
# Target: Histone acetyltransferase KAT6A, both winged helices, GST fusion (KAT6A, Homo sapiens, UniProt Q92794, residues 1-181)
# Method: protein binding microarray
# Molecule type: double-stranded DNA, one strand shown
# Medium: in vitro
# Concentration: not given
# Notes: 8-mer, flanks averaged, mean of 2 arrays, mostly near background
# Baseline: not given
# Reading: higher = stronger binding
# Residues (chain): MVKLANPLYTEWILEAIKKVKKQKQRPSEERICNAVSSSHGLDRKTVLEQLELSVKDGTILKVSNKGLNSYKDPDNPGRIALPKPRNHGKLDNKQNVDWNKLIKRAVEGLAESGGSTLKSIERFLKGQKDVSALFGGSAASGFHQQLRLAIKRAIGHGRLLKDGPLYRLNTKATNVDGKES
Sequence,E-score
ATACAAGA,-0.0776
CACCCGGA,0.0229
AATACCTG,-0.203
ATTTCGTC,-0.113
AGTGCCGA,0.202
ACATATCT,-0.149
GTGTATGA,-0.0649
CGTATGAA,0.114
AGGCGCTC,0.174
ATAATCGA,-0.0262
GTTCAGGA,-0.19
AGTCAACC,-0.187
GCCATACC,-0.00854
AACCACCG,0.143
AAACTGCA,-0.0999
ATATGAGC,-0.0429
CTGAGGCA,-0.0799
AAATGACA,-0.193
CTAAAAGC,0.119

# Set 3
# Target: RING finger protein unkempt homolog, zinc fingers 1-6, GST-SBP tag (UNK, Homo sapiens, UniProt Q9C0B0, residues 30-357)
# UniProt Q9C0B0, sequence (30-357, looked up): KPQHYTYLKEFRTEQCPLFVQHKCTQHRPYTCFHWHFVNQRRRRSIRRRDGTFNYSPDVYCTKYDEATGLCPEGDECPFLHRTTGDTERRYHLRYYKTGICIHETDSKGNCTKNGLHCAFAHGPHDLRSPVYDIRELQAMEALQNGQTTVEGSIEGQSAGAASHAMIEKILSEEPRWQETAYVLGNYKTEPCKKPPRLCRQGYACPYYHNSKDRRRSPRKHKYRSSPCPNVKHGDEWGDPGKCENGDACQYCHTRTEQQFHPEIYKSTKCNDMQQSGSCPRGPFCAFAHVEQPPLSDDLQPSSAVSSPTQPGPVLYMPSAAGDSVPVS
# Method: RNA Bind-n-Seq
# Molecule type: RNA
# Medium: in vitro
# Concentration: not given
# Notes: RNA with constant flanks, ends assumed
# Baseline: input RNA pool
# Reading: higher = stronger binding
Sequence,bound/input enrichment [ratio]
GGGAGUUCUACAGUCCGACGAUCAGCAAUGAAAAGACAGCCCUCCUCCCAGCCCCCACCUCACUAGGAGACACGAACGUUACCGCCGAAGAGCAAUUUAACUCAAUAAAUUUAUCUUUUCAGGAUGAUCCAGACUCCAGUCCCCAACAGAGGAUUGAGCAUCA,0.201
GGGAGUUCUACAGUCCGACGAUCUUGGCCUCCAACCCCAUCAUGGAGUCAAUUGGAAAUGCCAAAACAACCAGGAAUGAUAACCGCAGCCGGUUUGGAAAAUAUAUUGAAAUUGGUUUUGACAAGAGGUACAGAAUCAUCGGUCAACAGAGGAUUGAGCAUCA,0.232
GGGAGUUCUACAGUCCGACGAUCGACUUUGGGACUGGUCCUCGCAACGCAGCCUUCUAUAGCCCUCAUGGACAUAUAUCCGUGCUGGCUGGAUUUGGAAAUCUUCGAGGACAAAUGGAAGUAUGGGAUGUUAAAAACUACAAGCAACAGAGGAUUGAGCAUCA,0.243
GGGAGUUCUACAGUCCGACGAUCGAAUCUGUACUUGUAGAGUGGCGCGAUGCAACAGAGAAGAAUAAGGAGUUUCUCCCGCGUUCCGGAGCUACUAUUGAACAUAUCUCAGUCUCGCCUGCAGGAGAUUUAUUCUGCACUUCUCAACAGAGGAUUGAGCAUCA,0.18
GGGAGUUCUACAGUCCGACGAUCCACACCCUCUUCUGUGGCACCCUCAUUCUGCAGGCCCGAGCCUACGUGGGACCCCGUGUGCCCGCAGUGGUGACUCGGACAGGGUUCUGCACAGCCAAAGGGGGCCUGGUGAGCUCCAUCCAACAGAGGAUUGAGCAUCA,0.156
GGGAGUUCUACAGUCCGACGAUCUUUCUUUUUUUUUCCCCUUUCUUCUUCCUCCCUCCCAAUUCCAACACCUCCAACCCCCAAACCCGGCUGGCCUCGAACUCACUAUUGUAGAAAGAUGUCCUUGAAGUCUCAAUCCUCCUGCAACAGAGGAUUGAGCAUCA,1.92
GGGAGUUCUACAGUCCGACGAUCUACCACCAUGUACCCAGGCAUUGCUGACAGGAUGCAGAAGGAGAUUACUGCUCUGGCUCCCCGCACCAUGAAGAUCAAGAUCAUUGCUCCUCCUGAGCGCAAGUACUCUGUGUGGAUCGACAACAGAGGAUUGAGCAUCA,0.101
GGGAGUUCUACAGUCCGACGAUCAGCUCUAGGCUUUUCAGAUGUGGAUCAUACCUAUGCUCAAAGAACUCAGCUCUUUGACACCUCCGUAAAUUUCUUUCCUGACAGCAUGACUCCUCCUAAAGGCAACCUGGUAGACCUGAUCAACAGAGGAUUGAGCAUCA,0.294

# Set 4
# Target: Interferon regulatory factor 3, full length, phosphomimetic (IRF3, Homo sapiens, UniProt Q14653, residues 1-427, S386D/S396D/S398D/S402D/T404D/S405D)
# UniProt Q14653, sequence (whole entry, unmodified, looked up): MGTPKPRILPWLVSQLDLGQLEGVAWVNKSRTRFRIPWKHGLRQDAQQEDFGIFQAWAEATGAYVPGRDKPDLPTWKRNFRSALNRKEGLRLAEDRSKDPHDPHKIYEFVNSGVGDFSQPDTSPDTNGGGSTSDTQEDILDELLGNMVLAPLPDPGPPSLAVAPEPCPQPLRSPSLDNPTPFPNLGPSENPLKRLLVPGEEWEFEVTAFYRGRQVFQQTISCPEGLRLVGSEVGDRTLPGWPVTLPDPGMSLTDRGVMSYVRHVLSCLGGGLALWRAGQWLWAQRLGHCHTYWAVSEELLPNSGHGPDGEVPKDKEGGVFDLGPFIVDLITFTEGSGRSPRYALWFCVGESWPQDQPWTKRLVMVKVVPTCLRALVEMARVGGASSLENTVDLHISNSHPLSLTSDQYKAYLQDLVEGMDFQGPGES
# Method: protein-binding microarray
# Molecule type: double-stranded DNA, one strand shown
# Medium: in vitro
# Concentration: 2540 nM top
# Notes: 60-bp whole probe
# Together with: salmon DNA 0.4 mg/ml
# Baseline: random background probes
# Reading: higher = stronger binding
# All sequences stand within: GCCTAGCAC … GTCTTGATTCGCTTGACGCTGCTG
Sequence,fitted relative affinity [z-score]
CTAGAACTGAGTCTCGATTAGTGCTAG,-0.29
TTAGGTATCGCGTATCGGTTAGTGCTA,0.994
GACGGTTCCGGTTTCGCGACGTGCTAG,5.26
GACGGACTGGGTCTTGGGACGTGCTAG,-0.922
TTAGAGTCCAGTTTCGATTAGTGCTAG,3.56
CACGGTATCGGTCTCGGGACGTGCTAG,4.13
TCAACACTAATTTTTACACTGTGCTAG,0.121
GACGAACTGGGTTATCGAGACGTGCTA,-0.308
GACCATTCCAGTTTCGAGACGTGCTAG,3.15
AGTGTTTGCCCTATTTAAGAGTGCTAG,1.25
TTAGGACTGGACTATAGGTTAGTGCTA,-0.616
TTAGGACTGGACACTGCGTTAGTGCTA,-0.87
TCACATGTCTGTGTCACACTGTGCTAG,0.613
GACGGAGTGGGGTATCGGGACGTGCTA,-0.338
TTAGGACTGCTTCTCATTTAGTGCTAG,0.0774
GACGGTTTCGGATTCGGGACGTGCTAG,8.01
TTAAATCTCAGTCTCGATTAGTGCTAG,0.635

# Set 5
# Target: CCNE2, cyclin fold, Cln2 fusion (human)
# Method: yeast growth competition, sequencing
# Medium: yeast
# Notes: weak parent motif
# Baseline: not given
# Reading: higher = stronger binding
# Parent: SLBP docking peptide (human); ARYKRKLLINDFG
Change,normalised enrichment score
ARYMRKLLINDFG [K4M],1.01
ARYKRKLLINGFG [D11G],1.51
ARYKRKLHINDFG [L8H],0.239
ARYKRKLLWNDFG [I9W],1.23
ARYKRKLFINDFG [L8F],2.11
ARYKRKLLANDFG [I9A],0.303
ARYKRKLLINEFG [D11E],0.78
ACYKRKLLINDFG [R2C],0.182
ARYKHKLLINDFG [R5H],0.878
AKYKRKLLINDFG [R2K],0.479
ATYKRKLLINDFG [R2T],0.972
ARYKRKGLINDFG [L7G],0.584
ARYKRKSLINDFG [L7S],0.18
AVYKRKLLINDFG [R2V],0.738
ARYKRKLLLNDFG [I9L],0.991
ARYKRKLLIKDFG [N10K],0.846
ARYNRKLLINDFG [K4N],0.841
ARYKRKLLINDVG [F12V],0.304

# Some of these lines once more (set 1):
Sequence,7-mer Z-score
CUAACAC,-0.19
CUACGAA,-0.113
GGGUAUU,-0.0409
CAGGGUU,-0.162
